Assay results collected from several papers.
Each line is one published result; not all experiments were run side by side. Numbers after ± are the reported error.
POLB I260M: DNA polymerase beta (POLB, Homo sapiens, UniProt P06746, I260M)
SCTR: Secretin receptor (SCTR, Homo sapiens, UniProt P47872)
Chain of UniProt P47872 (whole entry, looked up): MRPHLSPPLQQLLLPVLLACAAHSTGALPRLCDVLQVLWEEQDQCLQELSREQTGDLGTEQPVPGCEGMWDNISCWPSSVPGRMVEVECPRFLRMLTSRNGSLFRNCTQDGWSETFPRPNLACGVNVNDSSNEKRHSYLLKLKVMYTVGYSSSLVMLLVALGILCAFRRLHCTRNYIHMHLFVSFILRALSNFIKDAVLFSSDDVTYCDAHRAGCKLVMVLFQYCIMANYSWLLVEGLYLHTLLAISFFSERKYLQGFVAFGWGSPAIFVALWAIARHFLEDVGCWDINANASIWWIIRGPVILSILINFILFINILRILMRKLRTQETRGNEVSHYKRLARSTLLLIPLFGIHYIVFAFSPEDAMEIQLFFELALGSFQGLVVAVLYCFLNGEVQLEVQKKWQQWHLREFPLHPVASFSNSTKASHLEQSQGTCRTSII
Chain of UniProt P28335 (whole entry, looked up): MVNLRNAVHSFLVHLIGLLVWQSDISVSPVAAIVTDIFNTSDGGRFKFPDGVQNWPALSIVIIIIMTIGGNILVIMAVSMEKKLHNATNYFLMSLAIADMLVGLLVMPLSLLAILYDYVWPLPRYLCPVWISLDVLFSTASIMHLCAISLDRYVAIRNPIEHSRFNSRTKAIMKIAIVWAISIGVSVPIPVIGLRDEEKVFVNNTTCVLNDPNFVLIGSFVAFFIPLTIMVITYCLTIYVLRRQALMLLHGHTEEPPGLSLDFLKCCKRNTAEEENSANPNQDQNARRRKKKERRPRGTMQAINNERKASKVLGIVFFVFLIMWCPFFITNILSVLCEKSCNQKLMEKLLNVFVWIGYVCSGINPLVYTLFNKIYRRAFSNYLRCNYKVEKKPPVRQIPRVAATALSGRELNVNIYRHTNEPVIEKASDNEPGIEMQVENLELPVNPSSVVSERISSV
Chain of UniProt O00214 (whole entry, looked up): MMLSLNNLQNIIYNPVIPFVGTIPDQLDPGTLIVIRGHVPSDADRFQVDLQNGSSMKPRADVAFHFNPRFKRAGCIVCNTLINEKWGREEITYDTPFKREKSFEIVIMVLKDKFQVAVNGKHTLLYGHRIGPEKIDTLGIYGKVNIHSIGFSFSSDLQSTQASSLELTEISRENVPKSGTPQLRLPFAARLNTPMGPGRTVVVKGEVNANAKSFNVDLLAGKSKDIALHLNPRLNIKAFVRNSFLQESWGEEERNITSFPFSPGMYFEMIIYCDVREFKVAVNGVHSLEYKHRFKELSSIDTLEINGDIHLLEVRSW
Chain of UniProt P35968 (whole entry, looked up): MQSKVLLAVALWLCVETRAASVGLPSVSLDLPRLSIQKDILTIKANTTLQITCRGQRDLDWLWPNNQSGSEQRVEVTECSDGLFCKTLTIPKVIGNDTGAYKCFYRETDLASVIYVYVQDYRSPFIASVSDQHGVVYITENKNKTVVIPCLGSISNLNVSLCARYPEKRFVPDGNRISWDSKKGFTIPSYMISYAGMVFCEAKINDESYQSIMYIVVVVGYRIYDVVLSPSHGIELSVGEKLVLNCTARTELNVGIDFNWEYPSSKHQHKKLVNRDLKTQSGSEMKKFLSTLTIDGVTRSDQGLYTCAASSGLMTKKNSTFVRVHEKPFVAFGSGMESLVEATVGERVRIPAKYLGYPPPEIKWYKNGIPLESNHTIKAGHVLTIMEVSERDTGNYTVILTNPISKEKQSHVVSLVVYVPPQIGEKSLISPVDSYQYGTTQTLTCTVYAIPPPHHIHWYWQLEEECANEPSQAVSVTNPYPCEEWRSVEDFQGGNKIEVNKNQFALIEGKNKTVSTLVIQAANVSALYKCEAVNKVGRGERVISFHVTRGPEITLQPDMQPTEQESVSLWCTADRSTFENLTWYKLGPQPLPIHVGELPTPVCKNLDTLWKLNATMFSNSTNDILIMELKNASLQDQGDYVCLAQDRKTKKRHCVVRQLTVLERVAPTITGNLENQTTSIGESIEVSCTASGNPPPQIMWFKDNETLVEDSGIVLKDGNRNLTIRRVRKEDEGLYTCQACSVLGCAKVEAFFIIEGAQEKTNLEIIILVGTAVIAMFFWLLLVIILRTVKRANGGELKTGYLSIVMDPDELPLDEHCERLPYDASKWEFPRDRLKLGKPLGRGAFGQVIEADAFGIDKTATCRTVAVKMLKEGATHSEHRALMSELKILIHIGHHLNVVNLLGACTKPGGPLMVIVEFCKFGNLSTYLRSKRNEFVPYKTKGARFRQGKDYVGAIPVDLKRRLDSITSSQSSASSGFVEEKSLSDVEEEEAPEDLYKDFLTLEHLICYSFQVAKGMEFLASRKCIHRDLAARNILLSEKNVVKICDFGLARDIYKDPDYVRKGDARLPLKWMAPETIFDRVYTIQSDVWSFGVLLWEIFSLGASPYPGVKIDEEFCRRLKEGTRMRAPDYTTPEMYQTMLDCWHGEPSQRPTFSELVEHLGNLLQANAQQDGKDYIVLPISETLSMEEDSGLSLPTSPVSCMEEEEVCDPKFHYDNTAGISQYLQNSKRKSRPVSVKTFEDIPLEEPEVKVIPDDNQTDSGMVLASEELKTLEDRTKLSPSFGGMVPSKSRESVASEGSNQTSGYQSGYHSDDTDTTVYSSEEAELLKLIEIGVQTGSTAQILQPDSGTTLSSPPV
Chain of UniProt P30803 (whole entry, unmodified, looked up): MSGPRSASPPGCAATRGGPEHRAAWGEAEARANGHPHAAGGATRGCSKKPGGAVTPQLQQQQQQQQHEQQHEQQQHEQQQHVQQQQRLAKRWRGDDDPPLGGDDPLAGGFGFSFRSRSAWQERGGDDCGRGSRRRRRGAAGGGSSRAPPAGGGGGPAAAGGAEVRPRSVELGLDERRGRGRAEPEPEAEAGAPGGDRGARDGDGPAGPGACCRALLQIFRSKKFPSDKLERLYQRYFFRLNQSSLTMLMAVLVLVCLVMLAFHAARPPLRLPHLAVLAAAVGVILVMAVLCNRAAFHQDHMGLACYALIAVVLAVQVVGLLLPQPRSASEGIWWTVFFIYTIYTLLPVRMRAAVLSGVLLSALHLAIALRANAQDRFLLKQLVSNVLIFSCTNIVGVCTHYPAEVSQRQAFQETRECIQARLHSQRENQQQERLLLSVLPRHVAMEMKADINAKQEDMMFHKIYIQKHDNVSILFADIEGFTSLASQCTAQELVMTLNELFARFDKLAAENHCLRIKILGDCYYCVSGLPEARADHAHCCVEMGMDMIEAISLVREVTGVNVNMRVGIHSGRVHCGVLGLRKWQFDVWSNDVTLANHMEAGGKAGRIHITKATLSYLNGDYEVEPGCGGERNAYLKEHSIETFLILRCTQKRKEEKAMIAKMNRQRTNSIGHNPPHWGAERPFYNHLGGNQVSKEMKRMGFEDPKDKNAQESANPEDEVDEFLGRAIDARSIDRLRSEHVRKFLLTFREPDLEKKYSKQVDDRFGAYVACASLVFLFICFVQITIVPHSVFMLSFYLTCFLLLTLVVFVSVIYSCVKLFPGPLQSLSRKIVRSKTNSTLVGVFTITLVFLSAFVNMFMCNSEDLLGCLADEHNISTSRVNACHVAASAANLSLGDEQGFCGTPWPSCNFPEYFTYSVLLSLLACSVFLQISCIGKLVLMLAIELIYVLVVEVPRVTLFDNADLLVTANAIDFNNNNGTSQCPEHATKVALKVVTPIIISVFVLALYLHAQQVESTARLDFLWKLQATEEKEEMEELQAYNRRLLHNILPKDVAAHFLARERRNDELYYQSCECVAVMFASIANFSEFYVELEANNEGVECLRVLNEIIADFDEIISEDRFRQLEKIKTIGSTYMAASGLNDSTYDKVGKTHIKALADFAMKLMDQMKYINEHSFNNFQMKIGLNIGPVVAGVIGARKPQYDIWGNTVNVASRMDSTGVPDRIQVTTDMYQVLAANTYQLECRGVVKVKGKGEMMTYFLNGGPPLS
Chain of UniProt Q9HBW0 (whole entry, looked up): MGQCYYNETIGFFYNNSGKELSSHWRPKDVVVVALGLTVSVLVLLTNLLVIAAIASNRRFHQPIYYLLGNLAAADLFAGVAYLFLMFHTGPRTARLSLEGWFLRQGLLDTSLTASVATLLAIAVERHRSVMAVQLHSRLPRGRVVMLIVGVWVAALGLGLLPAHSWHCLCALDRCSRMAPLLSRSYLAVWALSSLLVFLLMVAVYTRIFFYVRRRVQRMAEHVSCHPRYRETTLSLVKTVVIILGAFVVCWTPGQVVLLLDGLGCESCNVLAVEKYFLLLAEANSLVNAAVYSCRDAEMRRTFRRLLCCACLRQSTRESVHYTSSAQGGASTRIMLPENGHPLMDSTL
Chain of UniProt Q5HHB9 (whole entry, looked up): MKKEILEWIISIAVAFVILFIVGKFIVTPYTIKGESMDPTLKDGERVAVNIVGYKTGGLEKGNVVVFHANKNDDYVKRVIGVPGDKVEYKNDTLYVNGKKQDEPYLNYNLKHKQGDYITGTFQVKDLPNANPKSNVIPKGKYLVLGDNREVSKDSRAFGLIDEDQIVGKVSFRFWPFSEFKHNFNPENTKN
Chain of UniProt P08246 (whole entry, looked up): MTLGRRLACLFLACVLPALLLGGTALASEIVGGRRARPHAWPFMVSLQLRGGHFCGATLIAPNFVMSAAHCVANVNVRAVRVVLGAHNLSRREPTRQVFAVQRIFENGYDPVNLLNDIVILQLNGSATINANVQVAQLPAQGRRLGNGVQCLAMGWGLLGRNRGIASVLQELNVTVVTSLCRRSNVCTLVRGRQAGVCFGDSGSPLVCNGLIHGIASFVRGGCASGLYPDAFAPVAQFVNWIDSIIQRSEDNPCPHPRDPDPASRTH

O=C(Nc1ccc(C(=O)Nc2ccc(C(=O)Nc3ccc(S(=O)(=O)O)c4cc(S(=O)(=O)O)cc(S(=O)(=O)O)c34)cc2)cc1)Nc1ccc(C(=O)Nc2ccc(C(=O)Nc3ccc(S(=O)(=O)O)c4cc(S(=O)(=O)O)cc(S(=O)(=O)O)c34)cc2)cc1  Vmax (Neutrophil elastase (ELANE, Homo sapiens, UniProt P08246); substrate S-1384 hydrolysis; pH 7.4, 37 °C, enzyme 200 nM): 29.9 ± 1.28 mAU/min
CC(C)CCC[C@@H](C)[C@H]1CC[C@H]2[C@@H]3CC=C4C[C@@H](OS(=O)(=O)O)CC[C@]4(C)[C@H]3CC[C@]12C  Hill slope (Prothrombin (F2, Homo sapiens, UniProt P00734); enzyme activity, inhibitor; added: unfractionated heparin 250 µM): 2 ± 0.3
Clc1ccc(-c2n[nH]cc2CN2CCN(C34CC(C3)C4)CC2)cc1  Emax (5-hydroxytryptamine receptor 2C (HTR2C, Homo sapiens, UniProt P28335); β-arrestin recruitment, agonist): 73.8%
CCCCCCCC/C=C\CCCCCCCC(=O)OC[C@H]1OCCC[C@@H]1OP(=O)(O)S (some centres unmarked)  Emax (Lysophosphatidic acid receptor 2 (LPAR2, Homo sapiens, UniProt Q9HBW0); agonist, TGFα shedding): 16%
Cc1ncsc1-c1ccc([C@H](C)NC(=O)[C@@H]2C[C@@H](O)CN2C(=O)[C@@H](NC(=O)[C@H]2C[C@H](C(=O)N3CCC(c4cc(Nc5cc(C#N)ccn5)nc(N5CCC(F)(F)C5)c4)CC3)C2)C(C)(C)C)cc1  lowest degrading concentration (Mitogen-activated protein kinase kinase kinase 13 (MAP3K13, Homo sapiens, UniProt O43283); protein degradation, degrader, Western blot; CAL-33, dox-induced MAP3K13 overexpression; 24 h): 250 nM
Nc1nc2c(ncn2[C@H]2C[C@H](O)[C@@H](COP(=O)(O)OP(=O)(O)CP(=O)(O)O)O2)c(=O)[nH]1  kpol (POLB I260M; nucleotide incorporation rate, substrate, single-turnover kinetics; single-nucleotide gapped DNA; 37 °C, I260M, misincorporation, added: dGTP opposite template A): 0.0016 ± 0.0002 s⁻¹
CNc1ccccc1C(=O)O[C@H]1[C@@H](O)[C@H](n2ccc(=O)[nH]c2=O)O[C@@H]1COP(=O)(O)OP(=O)(O)O  potency loss on γ-phosphate deletion (ADCY5 (Canis lupus, UniProt P30803); Sf9 membranes; reference: NDP over NTP): 5 to 30 fold
O=C(Nc1ccccc1)Nc1ccc2c(c1)OC(F)(F)O2  remaining activity (Signal peptidase IB (spsB, Staphylococcus aureus, UniProt Q5HHB9); enzyme activity, FRET peptide cleavage; Staphylococcus aureus membranes; 50 µM; reference: DMSO): 1.15 ± 0.01 fold
COc1ccc(-c2cc(C(F)(F)F)nc(S(=O)(=O)CCCC(=O)Nc3ccc(F)c(Cl)c3)n2)cc1OC  Emax (SCTR; cAMP, agonist): 13%
N#Cc1cccc(-c2ccc(=O)n(Cc3cccc(-c4ncc(OCC5CCN(CC(=O)NCCOCCNc6ccc7c(c6)C(=O)N(C6CCC(=O)NC6=O)C7=O)CC5)cn4)c3)n2)c1 (centres unmarked)  Dmax (Hepatocyte growth factor receptor (MET, Homo sapiens, UniProt P08581); degrader; EBC-1; concentration not given): > 99%
OC[C@H]1Oc2c(Cc3ccccc3)c(Cc3ccccc3)cc3c2[C@@H](OC3)[C@H]1O  affinity increase (Galectin-8, N-terminal CRD (LGALS8, Homo sapiens, UniProt O00214); fluorescence polarization; unit not given; reference: methyl beta-galactoside): > 3
NC(=O)C1CCNC(=O)C(CCCNC(=O)c2cnccn2)NC(=O)C(CC2CCCCC2)NC(=O)C(CC2CC2)NC(=O)C=CC(=O)N1 (centres unmarked)  enrichment factor (Vascular endothelial growth factor receptor 2 (KDR, Homo sapiens, UniProt P35968); DNA-templated library selection; one selection round): 1.5
COc1ccccc1-c1cc(C(F)(F)F)nc(S(=O)(=O)CCCC(=O)Nc2ccc(F)cc2F)n1  Emax (SCTR; increase of tracer binding, TR-FRET; HEK293 membranes; added: Fluo-Sec 6 nM): 149 ± 23%
Cc1cn(C2CC(O)C(COP(=O)(O)OP(=O)(O)C(F)(Cl)P(=O)(O)O)O2)c(=O)[nH]c1=O (mixture of isomers)  kpol/Kd (POLB I260M; substrate, single turnover kinetics): 420000 ± 70000 M⁻¹ s⁻¹

Repeated from above:
Nc1nc2c(ncn2[C@H]2C[C@H](O)[C@@H](COP(=O)(O)OP(=O)(O)CP(=O)(O)O)O2)c(=O)[nH]1  kpol (POLB I260M; nucleotide incorporation rate, substrate, single-turnover kinetics; single-nucleotide gapped DNA; 37 °C, I260M, misincorporation, added: dGTP opposite template A): 0.0016 ± 0.0002 s⁻¹
CNc1ccccc1C(=O)O[C@H]1[C@@H](O)[C@H](n2ccc(=O)[nH]c2=O)O[C@@H]1COP(=O)(O)OP(=O)(O)O  potency loss on γ-phosphate deletion (ADCY5 (Canis lupus, UniProt P30803); Sf9 membranes; reference: NDP over NTP): 5 to 30 fold
